Published values pooled from the literature.
A part holds a random share of what one study measured.

Series 1
Target: Prothrombin, mature alpha-thrombin (F2, Homo sapiens, UniProt P00734)
Technique: aptamer microarray, sandwich
Form: DNA with 2'F-ANA
Medium: in vitro
Tested at: 200 nM
Notes: whole 15-mer aptamer, many near background
Added: Cy3 exosite-II aptamer, 400 nM
Reading: higher = stronger binding
Oligonucleotide: GGTTGGTGTGGTTGG
Modification	mean fluorescence intensity [a.u.]
2'F-ANA at 1 9	245
2'F-ANA at 1 2 3 11 12 13 14	119
2'F-ANA at 3 4 5 6 7 10 11 12 13 15	85.5
2'F-ANA at 1 2 4 6 7 8 10 13 15	82.1
2'F-ANA at 1 3 4 5 6 11 13 14 15	101
2'F-ANA at 2 3 6 8 13 14 15	369
2'F-ANA at 4 6 13 14 15	75.3
2'F-ANA at 3 4 5 6 9 12	203

Series 2
Target: Interferon regulatory factor 3, full length, phosphomimetic (IRF3, Homo sapiens, UniProt Q14653, residues 1-427, S386D/S396D/S398D/S402D/T404D/S405D)
Technique: protein-binding microarray
Form: double-stranded DNA, one strand shown
Medium: in vitro
Tested at: 2540 nM top
Notes: 60-bp whole probe
Added: salmon DNA 0.4 mg/ml
Reference: random background probes
Reading: higher = stronger binding
Constant ends, left off below: GCCTAGCAC … GTCTTGATTCGCTTGACGCTGCTG
Target sequence (chain): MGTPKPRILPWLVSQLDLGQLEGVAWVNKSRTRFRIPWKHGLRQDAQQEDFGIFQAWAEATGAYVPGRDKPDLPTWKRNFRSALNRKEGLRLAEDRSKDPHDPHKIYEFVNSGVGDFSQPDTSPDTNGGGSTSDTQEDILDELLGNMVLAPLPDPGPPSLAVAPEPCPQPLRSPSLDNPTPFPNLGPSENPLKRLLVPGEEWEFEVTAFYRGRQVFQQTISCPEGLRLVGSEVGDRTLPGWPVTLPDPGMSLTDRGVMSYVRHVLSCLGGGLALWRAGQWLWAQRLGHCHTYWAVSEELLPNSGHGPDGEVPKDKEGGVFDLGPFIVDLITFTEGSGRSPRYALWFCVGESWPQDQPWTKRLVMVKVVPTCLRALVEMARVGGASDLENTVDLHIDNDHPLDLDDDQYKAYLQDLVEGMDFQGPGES
Oligonucleotide	fitted relative affinity [z-score]
TTAGGTTTCGGTTCCTGTTAGTGCTAG	9.67
TTAGGTTTCCTTTTCCCTTAGTGCTAG	11.9
ATAGATCTCAGTTTCGATTAGTGCTAG	3.93
TCAGATTTCGGGACTGGATTAGTGCTA	1.61
TTAGATATCAGACTGGCTTAGTGCTAG	0.05
CTACTTCTCTTTTGGCTTTCGTGCTAG	2.55
TCAGATTTCAGTTTTCTACTGTGCTAG	3.37
TCATCTCTGTTTATGTCACTGTGCTAG	1.52

Series 3
Target: PABPC1L2, full length, GST fusion (mouse, UniProt A0ABA7IW68)
Technique: RNAcompete
Form: RNA
Medium: in vitro
Tested at: 20 nM
Notes: 7-mer, probes averaged, single round
Reference: mean of 7-mers
Reading: higher = stronger binding
Construct (chain): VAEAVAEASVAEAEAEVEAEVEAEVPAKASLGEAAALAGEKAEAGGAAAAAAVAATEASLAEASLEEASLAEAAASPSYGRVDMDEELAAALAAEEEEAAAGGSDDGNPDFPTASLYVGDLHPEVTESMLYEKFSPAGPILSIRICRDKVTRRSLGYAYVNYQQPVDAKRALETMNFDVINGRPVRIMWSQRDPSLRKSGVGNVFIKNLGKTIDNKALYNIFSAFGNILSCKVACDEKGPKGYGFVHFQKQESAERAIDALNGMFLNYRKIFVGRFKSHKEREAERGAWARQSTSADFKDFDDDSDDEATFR
Oligonucleotide	7-mer Z-score
AAUUCAC	0.0732
AAUUUGG	0.209
UUAACCU	-0.237
GAUGGGU	-0.0989
CCUCUUG	-0.465
UGGAUAU	0.106
CUUAAUC	-0.333
GGGCGAU	0.35

Other studies, line by line
Structure (SMILES)	cell line	assay	test system	conditions	scale	endpoint	value
O=C(NCc1ncc(C(F)(F)F)cc1Cl)c1ccc2c(c1)C1(CCS(=O)(=O)CC1)[C@H](C1CC1)N2S(=O)(=O)c1ccc(F)cc1	sample G normal colon organoids	CellTiter-Glo	human patient-derived organoids	0.1 µM, 4 days	reference: DMSO control	viability	96.8%

Excerpt of the above (series 1):
Modification	mean fluorescence intensity [a.u.]
2'F-ANA at 3 4 5 6 7 10 11 12 13 15	85.5
2'F-ANA at 3 4 5 6 9 12	203
2'F-ANA at 1 2 4 6 7 8 10 13 15	82.1
